# Literature values that unrelated publications cite.
# Protocols differ between the studies behind these lines.
SMILES,tested on,test,system,setting,how to read,quantity,value
CCCCCc1cc(O)c2c(c1)OC(C)(C)C1CCC(C(=O)O)=CC21 (stereo not drawn),,,"human, plasma",inhalation,,Tmax,~80 min
CCCC(C(=O)c1ccccc1)N1CCCC1 (stereo not drawn),,,"human, blood",rectal,,detection time in blood,20 h
CCCCCc1cc(O)c2c(c1)OC(C)(C)C1CCC(C)=CC21 (stereo not drawn),,,,,,logP,6.42
CC1(C)N=C(N)N=C(N)N1c1cccc(Cl)c1,respiratory syncytial virus,,,,baseline: cytotoxic over antiviral concentration,selectivity index,> 10000
"CCCCCc1cc(O)c2c(c1)OC(C)(C)C1CCC(C)=CC21 (single isomer, unassigned; (-))",,,"human, plasma",,,fraction unbound,0.03
CC1(C)N=C(N)N=C(N)N1c1cccc(C(F)(F)F)c1,respiratory syncytial virus,,,,baseline: cytotoxic over antiviral concentration,selectivity index,> 10000
"CCCCCc1cc(O)c2c(c1)OC(C)(C)C1CCC(C)=CC21 (single isomer, unassigned; (-))",,,"human, plasma","inhalation, 10 mg",,plasma concentration,0.35 µM
CN[C@H](CC(C)C)C(=O)N[C@H]1C(=O)N[C@@H](CC(N)=O)C(=O)N[C@H]2C(=O)N[C@H]3C(=O)N[C@H](C(=O)N[C@H](C(=O)O)c4cc(O)cc(O)c4-c4cc3ccc4O)[C@H](O)c3ccc(c(Cl)c3)Oc3cc2cc(c3O[C@@H]2O[C@H](CO)[C@@H](O)[C@H](O)[C@H]2O[C@H]2C[C@](C)(NCc3ccc(-c4ccc(Cl)cc4)cc3)[C@H](O)[C@H](C)O2)Oc2ccc(cc2Cl)[C@H]1O,,,"mouse, plasma","intravenous, 75 mg/kg (MTD)",,Tmax,15 min
CC[C@H](C)[C@H](NC(=O)[C@H](CC(=O)O)NC(=O)[C@@H](NC(=O)[C@@H]1CCCN1C(=O)[C@@H](N)CCCNC(=N)N)[C@@H](C)O)C(=O)N[C@@H](CCCCN)C(=O)N[C@H]1CSSC[C@@H]2NC(=O)[C@H](CCCNC(=N)N)NC(=O)CNC(=O)[C@H](CC(N)=O)NC(=O)[C@H]([C@@H](C)O)NC(=O)[C@H](CCCCN)NC(=O)CNC(=O)[C@H](Cc3ccccc3)NC(=O)[C@H](CCCNC(=N)N)NC(=O)[C@H](CO)NC(=O)[C@H](CCCCN)NC(=O)[C@@H]3CSSC[C@@H](C(=O)N[C@@H](Cc4ccccc4)C(=O)O)NC(=O)[C@H](CC(=O)O)NC(=O)[C@H](CSSC[C@H](NC(=O)[C@H](CCC(N)=O)NC(=O)[C@H](Cc4ccc(O)cc4)NC(=O)[C@H](CO)NC(=O)[C@H](CCC(=O)O)NC(=O)[C@H](CO)NC1=O)C(=O)N[C@@H](Cc1ccccc1)C(=O)N1CCC[C@H]1C(=O)N[C@@H](C(C)C)C(=O)N3)NC(=O)[C@H](Cc1ccccc1)NC(=O)CNC(=O)[C@H](CC(N)=O)NC(=O)[C@H](C(C)C)NC2=O,hERG channel,"ion current, blocker",HEK293,,,IC50,3.3 nM
O=C(OCC[18F])C1C2CCC(CC1c1ccc(/C=C\I)cc1)N2 (stereo not drawn),SERT,HRRT PET,"awake rhesus monkey, caudate",,,time to peak uptake,85 min
CCCCCC1=C(NCC)C(=O)C(C/C=C(\C)CCC=C(C)C)=C(O)C1=O,hERG channel,,,concentration not given,,inhibition,no inhibition
CC[C@H](C)C(=O)N1CCC(NC(=O)Nc2ccc(OC(F)(F)F)c(F)c2)CC1,human CYP2C8,inhibitor,,up to solubility limit,,inhibition,no inhibition

# Excerpt of the above:
SMILES,tested on,test,system,setting,how to read,quantity,value
CCCCCC1=C(NCC)C(=O)C(C/C=C(\C)CCC=C(C)C)=C(O)C1=O,hERG channel,,,concentration not given,,inhibition,no inhibition
